Measured values collected from several papers.
Lines come from different studies, so protocols differ.

| SMILES | test | test system | setting | scale | measurement | result |
| --- | --- | --- | --- | --- | --- | --- |
| C=CC(=O)NC1CCN(c2ncc3ncnc(Nc4ccc(Oc5ccc6c(c5)ncn6C)c(C)c4)c3n2)CC1 |  | healthy male human | oral, 60 mg, 2 weeks, maximum CTCAE grade 4 |  | subjects with adverse events | 0% |
| O=C(COc1ccc(Cl)cc1)NC12CC(c3nnc([C@H]4C[C@@H](OC(F)(F)F)C4)o3)(C1)C2 |  | humans, MAD | oral, dose not given, 14 days, all doses, highest severity |  | subjects with mild TEAE | 82.4% |
| CC(C)n1c(Nc2cccnc2)nc2cnc(Nc3ccc(N4CCN(C)CC4)cc3)nc21 | measured: investigations (SOC) | healthy human, male | oral, dose not given, CTCAE grade 1-3 |  | subjects with TEAE | 47.6% |
| Cc1cc(-c2nccc3c2ccn3CC(=O)Nc2ccc(-c3cnccn3)cn2)ccn1 |  | human | 15 mg once daily, multiple ascending dose |  | subjects with Folliculitis adverse event | 0% |
| CCO |  | human |  |  | subjects with treatment-emergent adverse events | 88.9% |
| CO[C@H]1/C=C/O[C@@]2(C)Oc3c(C)c(O)c4c(O)c(c(/C=N/N5CCN(C)CC5)c(O)c4c3C2=O)NC(=O)/C(C)=C\C=C\[C@H](C)[C@H](O)[C@@H](C)[C@@H](O)[C@@H](C)[C@H](OC(C)=O)[C@@H]1C |  | healthy humans | oral, 600 mg, with: gepotidacin 1500 mg |  | subjects with abdominal pain | 0% |
| CO[C@]1(C(=O)N[C@@H](C)c2ccc(-n3cc(F)cn3)nc2)CC[C@H](c2nc(C)cc(Nc3cc(C)[nH]n3)n2)CC1 |  | healthy human | oral, dose not given, both treatments |  | subjects with adverse events | 40% |
| C[C@@H](N)c1cc(Cl)ccc1Cn1c(=S)[nH]c(=O)c2[nH]ccc21 |  | human | oral, 2.5 mg single dose |  | subjects with severe adverse events | 0% |
| COC(=O)N[C@H](C(=O)N1CCC[C@H]1c1ncc(-c2cc(F)c3c(c2)O[C@@H](c2cnc(C4CC4)s2)n2c-3cc3cc(-c4cnc([C@@H]5CCCN5C(=O)[C@@H](NC(=O)OC)C(C)C)[nH]4)ccc32)[nH]1)C(C)C |  | healthy adult human | oral, 180 mg, 6 days, compound alone |  | subjects with abdominal pain | 0% |
| CN(C)C(=N)N=C(N)N | measured: Diarrhea | healthy human | oral, dose not given |  | subjects with adverse event | 20.8% |
| C[C@H]1CN(C(=O)CC#N)[C@]12CCN(c1ncnc3[nH]ccc13)C2 |  | healthy human | oral, 6 mg single |  | subjects with Arthralgia | 0% |
| CN1C(=O)[C@@H](NC(=O)c2nnc(Cc3ccccc3)[nH]2)COc2cccnc21 |  | human, fasted | oral, 30 mg single dose |  | subjects with headache | 16.7% |
| CO[C@H]1/C=C/O[C@@]2(C)Oc3c(C)c(O)c4c(O)c(c(/C=N/N5CCN(C)CC5)c(O)c4c3C2=O)NC(=O)/C(C)=C\C=C\[C@H](C)[C@H](O)[C@@H](C)[C@@H](O)[C@@H](C)[C@H](OC(C)=O)[C@@H]1C | measured: rash papular | humans | oral, dose not given |  | subjects with TEAEs | 0% |
| CC(C)c1c(C(=O)Nc2ccccc2)c(-c2ccccc2)c(-c2ccc(F)cc2)n1CC[C@@H](O)C[C@@H](O)CC(=O)O | measured: any adverse event | healthy human | oral, dose not given | reference: subjects | subjects with adverse event | 3% |
| CO[C@H]1C[C@@H]2CC[C@@H](C)[C@@](O)(O2)C(=O)C(=O)N2CCCC[C@H]2C(=O)O[C@H]([C@H](C)C[C@@H]2CC[C@@H](O)[C@H](OC)C2)CC(=O)[C@H](C)/C=C(\C)[C@@H](O)[C@@H](OC)C(=O)[C@H](C)C[C@H](C)/C=C/C=C/C=C/1C |  | healthy human subjects | oral, dose not given |  | subjects with TEAEs | 13.6% |
| CN(Cc1cnc2nc(N)nc(N)c2n1)c1ccc(C(=O)N[C@@H](CCC(=O)O)C(=O)O)cc1 | measured: gastrointestinal disorders | healthy human | oral, dose not given |  | subjects with adverse event | 0% |
| CC(C)(C(=O)N1CCOc2c(C#N)cncc2C1)C(F)F | measured: general and administration site conditions | healthy humans, both sexes | oral, 40 mg single dose |  | subjects with TEAE | 16.7% |
| CC(=O)CC(c1ccccc1)c1c(O)c2ccccc2oc1=O (stereo not shown) |  | human | concentration not given, trial 1 |  | subjects with TEAE | 12% |
| C[C@H]1O[C@@H](O[C@H]2[C@@H](O)C[C@H](O[C@H]3[C@@H](O)C[C@H](O[C@H]4CC[C@@]5(C)[C@H](CC[C@@H]6[C@@H]5C[C@@H](O)[C@]5(C)[C@@H](C7=CC(=O)OC7)CC[C@]65O)C4)O[C@@H]3C)O[C@@H]2C)C[C@H](O)[C@@H]1O | measured: Headache | healthy human | oral, dose not given |  | subjects with adverse event | 4.2% |
| C[C@@H](Oc1ccc(S(C)(=O)=O)cc1C(=O)N1C[C@@H]2C[C@]2(c2cc(C(F)(F)F)on2)C1)C(F)(F)F |  | human | oral plus intravenous microtracer, 25 mg oral plus 30 µg IV, on-treatment period |  | subjects with adverse events | 50% |
| C=C(C)[C@@H]1CC[C@]2(NCCN3CCS(=O)(=O)CC3)CC[C@]3(C)[C@H](CC[C@@H]4[C@@]5(C)CC=C(C6=CC[C@@](CF)(C(=O)O)CC6)C(C)(C)[C@@H]5CC[C@]43C)[C@@H]12 |  | healthy human volunteers | oral, 500 mg, 7 days |  | subjects with any adverse event | 17% |
| C=CC[C@@H]1/C=C(\C)C[C@H](C)C[C@H](OC)[C@H]2O[C@@](O)(C(=O)C(=O)N3CCCC[C@H]3C(=O)O[C@H](/C(C)=C/[C@@H]3CC[C@@H](O)[C@H](OC)C3)[C@H](C)[C@@H](O)CC1=O)[C@H](C)C[C@@H]2OC |  | healthy human subjects | oral, dose not given |  | subjects with TEAEs | 33.3% |
| Cc1nc(Nc2ncc(C(=O)Nc3c(C)cccc3Cl)s2)cc(N2CCN(CCO)CC2)n1 |  | human | oral, 100 mg |  | subjects with related SAE | 0% |
| CC[C@H](C)[C@H](NC(=O)[C@H](Cc1ccccc1)NC(=O)[C@H](CCC(=O)O)NC(=O)[C@H](CCCCNC(=O)COCCOCCNC(=O)COCCOCCNC(=O)CC[C@H](NC(=O)CCCCCCCCCCCCCCCCC(=O)O)C(=O)O)NC(=O)[C@H](C)NC(=O)[C@H](C)NC(=O)[C@H](CCC(N)=O)NC(=O)CNC(=O)[C@H](CCC(=O)O)NC(=O)[C@H](CC(C)C)NC(=O)[C@H](Cc1ccc(O)cc1)NC(=O)[C@H](CO)NC(=O)[C@H](CO)NC(=O)[C@@H](NC(=O)[C@H](CC(=O)O)NC(=O)[C@H](CO)NC(=O)[C@@H](NC(=O)[C@H](Cc1ccccc1)NC(=O)[C@@H](NC(=O)CNC(=O)[C@H](CCC(=O)O)NC(=O)C(C)(C)NC(=O)[C@@H](N)Cc1cnc[nH]1)[C@@H](C)O)[C@@H](C)O)C(C)C)C(=O)N[C@@H](C)C(=O)N[C@@H](Cc1c[nH]c2ccccc12)C(=O)N[C@@H](CC(C)C)C(=O)N[C@H](C(=O)N[C@@H](CCCNC(=N)N)C(=O)NCC(=O)N[C@@H](CCCNC(=N)N)C(=O)NCC(=O)O)C(C)C |  | healthy humans | subcutaneous, 0.25 to 1.5 mg weekly, escalated, 16 weeks, Moderate severity |  | subjects with adverse events | 61.4% |
| CC(=O)N(C)[C@H]1CCN(C(=O)c2cnc3c(c2)C[C@](C)(c2ccc(F)cc2)N3)C1 |  | healthy male human | oral, dose not given, all doses pooled |  | subjects with drug-related AEs | 25% |

Some of these lines once more:
| SMILES | test | test system | setting | scale | measurement | result |
| --- | --- | --- | --- | --- | --- | --- |
| C[C@H]1CN(C(=O)CC#N)[C@]12CCN(c1ncnc3[nH]ccc13)C2 |  | healthy human | oral, 6 mg single |  | subjects with Arthralgia | 0% |
| CN1C(=O)[C@@H](NC(=O)c2nnc(Cc3ccccc3)[nH]2)COc2cccnc21 |  | human, fasted | oral, 30 mg single dose |  | subjects with headache | 16.7% |
| CO[C@H]1/C=C/O[C@@]2(C)Oc3c(C)c(O)c4c(O)c(c(/C=N/N5CCN(C)CC5)c(O)c4c3C2=O)NC(=O)/C(C)=C\C=C\[C@H](C)[C@H](O)[C@@H](C)[C@@H](O)[C@@H](C)[C@H](OC(C)=O)[C@@H]1C | measured: rash papular | humans | oral, dose not given |  | subjects with TEAEs | 0% |
| CC(C)c1c(C(=O)Nc2ccccc2)c(-c2ccccc2)c(-c2ccc(F)cc2)n1CC[C@@H](O)C[C@@H](O)CC(=O)O | measured: any adverse event | healthy human | oral, dose not given | reference: subjects | subjects with adverse event | 3% |
